Published values from different studies.
Protocols differ between the studies behind these lines. Numbers after ± are the reported error.
TDP1: Tyrosyl-DNA phosphodiesterase 1 (TDP1, Homo sapiens, UniProt Q9NUW8)
UniProt Q9NUW8, sequence (whole entry, looked up): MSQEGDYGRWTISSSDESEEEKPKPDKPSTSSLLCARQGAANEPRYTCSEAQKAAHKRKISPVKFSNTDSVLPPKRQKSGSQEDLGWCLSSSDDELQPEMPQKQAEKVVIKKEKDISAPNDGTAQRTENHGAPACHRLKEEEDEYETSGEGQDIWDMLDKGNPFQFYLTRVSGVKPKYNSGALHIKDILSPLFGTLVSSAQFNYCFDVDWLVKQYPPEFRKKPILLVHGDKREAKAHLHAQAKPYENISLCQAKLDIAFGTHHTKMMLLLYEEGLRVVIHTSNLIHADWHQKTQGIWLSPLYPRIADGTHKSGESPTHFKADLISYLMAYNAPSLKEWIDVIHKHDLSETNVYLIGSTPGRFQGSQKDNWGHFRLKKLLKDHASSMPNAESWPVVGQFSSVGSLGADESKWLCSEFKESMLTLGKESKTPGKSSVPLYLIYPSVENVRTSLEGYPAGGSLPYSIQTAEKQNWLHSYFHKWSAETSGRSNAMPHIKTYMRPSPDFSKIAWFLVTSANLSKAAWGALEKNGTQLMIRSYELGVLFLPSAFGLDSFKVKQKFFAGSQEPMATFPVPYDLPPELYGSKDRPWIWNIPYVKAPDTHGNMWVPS

| SMILES | target or system | test | system | conditions | how to read | measurement | result |
| --- | --- | --- | --- | --- | --- | --- | --- |
| Cn1ncc2cc(-c3cncc(Cl)c3N3CCC4(CCNC4=O)CC3)ccc21 | LS174T | gene expression, microarray, item: CIITA mRNA |  | concentration not given, 4 h | baseline: untreated cells | log2 fold change | -1.33 |
| C=CC(=O)Nc1cccc(Cn2ncc3cnc(Nc4cnn(CCOC)c4)nc32)c1 | human p38-delta | KINOMEscan |  | 100 nM | baseline: control | binding | 100% |
| COc1cc(O)ccc1CCC(c1ccc(O)cc1)c1cc2c(c(C)c1O)OC(c1ccc(O)cc1)CC2 (mixture of isomers) |  |  | human blood | 30 µM, added: A23187 |  | 15-HETE level | 563 ± 335 pg/mL |
| CCN(CC)CC(=O)Nc1cccc(-n2cc(-c3ccc4ccc(-c5cn(-c6cccc(NC(=O)CN(CC)CC)c6)nn5)cc4c3)nn2)c1 | RCC4 | PCR angiogenesis array, item: COL4A3 |  | 5 x IC50, 4 h, normoxia | baseline: untreated | fold regulation | -1.13 |
| CN1CCCNC(=O)c2cccc(c2)C(=O)NCCCN(C)CCCNc2cccc3c2C(=O)c2cccc(c2C3=O)NCCC1 | SAS | RNA-Seq, item: SMAP2 mRNA |  | 1 µM, 6 h | baseline: untreated cells | log2 fold change | -0.706 |
| COc1ccc(C(=O)CCc2cc(C(CCc3ccc(O)cc3OC)c3ccc(O)cc3)c(O)cc2OC)cc1 (racemic) |  |  | human blood | 3 µM, added: A23187 |  | 12-HETE level | 12300 ± 4290 pg/mL |
| COCC1CN(C2CCN(c3cc(OC)c(Nc4ncc(Br)c(Nc5ccc6c(c5P(C)(C)=O)OCCO6)n4)cc3C)CC2)C1 |  | RECIST 1.1 | advanced EGFR-mutant NSCLC patients | 10 mg once daily |  | progressive disease | 66.7% |
| Cc1ncsc1-c1ccc(C(C)NC(=O)C2CC(O)CN2C(=O)C(NC(=O)CCCCCCCCCCN2CCCC(Nc3ncc(Cl)c(Nc4ccccc4S(=O)(=O)C(C)C)n3)C2)C(C)(C)C)cc1 (stereo not drawn) | 22Rv1 | RNA-seq, item: TIGD2 mRNA |  | concentration not given | baseline: DMSO | log2 fold change | -1.54 |
| CC=C(C)C(=O)OC1CC2C(C=C(C)C3C(OC(C)=O)CC(=O)C13C)OC(=O)C2C (stereo not drawn) | Helicobacter pylori | microbial growth, broth dilution |  | 7.81 µg/mL |  | inhibition | 0% |
| CC(C)(C=NOCc1ccc2nc(-c3ccccc3)c(Nc3ccc(C(=O)O)cc3)n2c1)Sc1ccccc1 (mixture of isomers) | TDP1 | enzyme activity, inhibitor |  | 100 µM, unpurified compound |  | inhibition | 11.2% |
| CNS(=O)(=O)Nc1nccc(Cc2c(C)c3ccc(Oc4ncccc4F)cc3oc2=O)c1F | NCI-H1048 | cell viability |  | 7 days |  | IC50 | 0.665 µM |
| O=C(O)c1ccc(Nc2c(-c3ccc(CON=Cc4ccc(-c5nnn[nH]5)cc4)cc3)nc3cc(-c4ccccc4)ccn23)cc1 | TDP1 | enzyme activity, inhibitor |  | 100 µM, unpurified compound |  | inhibition | 96.6% |
| Nc1ncc(-c2cc(-c3cnn(CC(F)(F)F)c3)ncc2F)nc1C(=O)NC1CNCC(F)C1 (stereo not drawn) | FLT1 | KINOMEscan |  | 1 µM | baseline: DMSO control | remaining binding | 43% |
| C=CC(=O)N1[C@@H](c2ccc3c(c2)OCO3)c2[nH]c3ccccc3c2C[C@H]1C(=O)N1CCN(C)CC1 | CCNE1 WT-3xFLAG:CDK2 complex | co-IP TMT proteomics, item: KIF20B | HEK-293T | 20 µM, 6 h | baseline: DMSO | log2 fold change | -0.14 |
| Cc1cccc(C)c1CNc1cc(C(=O)N2CCC2)cn2c(C)c(C)nc12 |  | esophageal lesions | rat reflux esophagitis model | oral, 0.5 mg/kg |  | inhibition | 42.2% |
| c1ccc(-c2n[nH]cc2-c2ccnc3ccccc23)nc1 | CKA2 (Candida albicans) | kinase binding, MIB/MS competition | Candida albicans lysate | 1 µM | baseline: DMSO | log2 fold change | 0.03 |
| C=C(NC(=O)c1csc(-c2nc3c(cc2O)-c2nc(cs2)C(=O)NC(C(C)O)C(=O)NC(=C(C)OC)c2nc(cs2)C(=O)NC2c4nc(cs4)C(=O)NC(COC(=O)c4c5c6c(cccc6n4O)COC(=O)C(OC4CC(C)(O)C(N(C)C)C(C)O4)C2OC5)c2nc-3cs2)n1)C(N)=O (stereo not drawn) | Streptococcus pneumoniae |  | -4, immunocompromised mice, lung | 4 mg/kg/day thrice daily, 24 h post-dose |  | lung bacterial load | 5.54 log10 CFU/lung |
| COC1CN([C@H]2CC[C@H]([C@@]3(C)Oc4c(Cl)cc(C(=O)NCc5c(SC)cc(C)[nH]c5=O)c(C)c4O3)CC2)C1 |  | RNA-seq, item: SRCIN1 mouse homolog | mouse, HT-1376 xenograft, whole blood | dose not given | baseline: vehicle | log2 fold change | 0.882 |

For quick reference, copied from above:
| SMILES | target or system | test | system | conditions | how to read | measurement | result |
| --- | --- | --- | --- | --- | --- | --- | --- |
| C=CC(=O)N1[C@@H](c2ccc3c(c2)OCO3)c2[nH]c3ccccc3c2C[C@H]1C(=O)N1CCN(C)CC1 | CCNE1 WT-3xFLAG:CDK2 complex | co-IP TMT proteomics, item: KIF20B | HEK-293T | 20 µM, 6 h | baseline: DMSO | log2 fold change | -0.14 |
| CC=C(C)C(=O)OC1CC2C(C=C(C)C3C(OC(C)=O)CC(=O)C13C)OC(=O)C2C (stereo not drawn) | Helicobacter pylori | microbial growth, broth dilution |  | 7.81 µg/mL |  | inhibition | 0% |
